Results of several laboratories.
Parts stem from different laboratories: compare values within a part only.

Block 1 — method: RNA Bind-n-Seq; molecule type: RNA; matrix: in vitro; concentration: not given; baseline: input RNA pool; direction: higher = stronger binding
Target: RING finger protein unkempt homolog, zinc fingers 1-6, GST-SBP tag (UNK, Homo sapiens, UniProt Q9C0B0, residues 30-357)
Sequence of UniProt Q9C0B0 (30-357, looked up): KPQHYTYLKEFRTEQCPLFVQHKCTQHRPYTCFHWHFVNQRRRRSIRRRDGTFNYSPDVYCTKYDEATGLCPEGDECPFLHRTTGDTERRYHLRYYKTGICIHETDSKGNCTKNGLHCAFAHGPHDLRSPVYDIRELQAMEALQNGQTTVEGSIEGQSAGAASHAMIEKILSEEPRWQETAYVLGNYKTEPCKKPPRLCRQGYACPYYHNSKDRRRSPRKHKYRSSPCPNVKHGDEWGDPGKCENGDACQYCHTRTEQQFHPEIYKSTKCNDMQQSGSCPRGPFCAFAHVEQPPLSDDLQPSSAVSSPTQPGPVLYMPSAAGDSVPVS
Notes: RNA with constant flanks, human and mouse sites, ends assumed
All sequences stand within: GGGAGUUCUACAGUCCGACGAUC … CAACAGAGGAUUGAGCAUCA
Oligonucleotide	bound/input enrichment [ratio]
GAAAGUGAUGAAGAGGUCUCUUCUCCGGCCCCAAGUGUCCCCGGGCCAUCUUCACCCUUUGGUUUGGGCAGUGACACUGAUGAAGAACAAGGUCAGCAACCAGGAGUAGAGGAGUCCUCU	0.246
UACUUGUACUUUCUUGACUGAUAGUCAUCUUGACUUAAGUAGUUUGAGUAGCCUUUUAGGAAUUACUUGUAAAUAGCCUUGUAAAUAGAGCAUUUAACCAUAUGUACCCUUCCUAGCCUC	1.55
GGAGGGUGAGCACUGGAGCUGGAAAGGCCAGGAGGGCGGGGCUCGAAGUUGUGGGCGGAGACUAGGGGCGUGGCCAAAUUGAUCGUGUACUGUGAAAGAGGUACAGUGUGUUGCAAAUAG	0.677
UGUUGUACACCUAGAAUCUUUGUGAAUAAUGUGAGGCCAGUUCUUCCAUAAGGAAGGCUGGUUAUGGAUAUUCAUAAGGUUAUUUCAAAGUUAAUAAAGACAAAGUGGCAACUGUAGAAA	0.305
UAUUUUGAGCAUCCGUGCUAACCUGGGAACUGGCAUCUCUAUUGUUUGCUUCUGCUCAAGCUCCAUGAAACUCCAUGAAUCAGAAGAACUUCACCUGCAGACUUCUUCAAAUGACAGGGG	0.193
GUCCUUAUUGAUCCUUUUUCUUGGCGUUACCAUUUUUGAAGCAAAGUUAACCUAGCUUUCUAGUUUGAGCUUUCUUUUUGGCCGUCUUUAAAAAAAUUUUUUUUUUUAAUCUAUAAAAUA	0.767
CGGUGUGUUGUCUGUUGUUAAUUCCAUUCCCUCCGUGUGUUUCCUUAAAAGCUUCUGUCUAUUAGUGGCUUCCUGUGCUCUGGGCACUUAACUCCUAAUCUUUCAAACACCGGGAUGCAA	0.497
GAUCUAAUCCAGGAUGUUGAAUGGGAUUAUUGCCAUCUUACACCAUAUUUUUGUAAAAUGUAGCUUAAUCAUAAUCUCACACUGAAGAUUUUGCAUCACUUUUGCUAUUAUCAUUCUUUU	0.12
UAGUCAUAUUCCUGAGAAGUAGGAAACUAAAACUUCUUUUCAUAUAAUUGUUAGAAGGUUUGUUUCCCAAACUACCAUAGUUACAAAGGUGAAAAGCCAAAUUUUAGGAACAGAAUCAAA	5.99
UUGAAAGGUAAUGGGAGCCCAGUCAAUGGGAGUUCUCAGCAGGGAACCUCAAAUCCUUCCCUAGGUUCAACUAUUCCAAGUCUUCAGAAUUCAUUAAAUGGAUCUUCUGCUGGCAGAAAG	0.289
GCUAGUAACAAUCGUUUAUUUCAGCUUGUAAUGAAAGGCCUGCUUUAUGAAUGCUGUGUAGAAUUUUGUCAGAGUAAAGCAACUGGAGAAGAAAUUACAGAAAGCGAAGUGCUUCUUGGC	0.453

Block 2 — method: EMSA with sequencing; molecule type: double-stranded DNA, one strand shown; matrix: in vitro; concentration: 10 and 20 nM; baseline: negative control set to 0; direction: higher = stronger binding
Target: Hepatocyte nuclear factor 3-alpha (Foxa1, Mus musculus, UniProt P35582, residues 1-468, full length assumed)
Notes: whole designed probe, mean of two concentrations, ends assumed
All sequences stand within: GTGAGCGGTGCCCATTGATGGGGAAC … TTTCACTGGGATCGTGGGGAC
Construct (chain): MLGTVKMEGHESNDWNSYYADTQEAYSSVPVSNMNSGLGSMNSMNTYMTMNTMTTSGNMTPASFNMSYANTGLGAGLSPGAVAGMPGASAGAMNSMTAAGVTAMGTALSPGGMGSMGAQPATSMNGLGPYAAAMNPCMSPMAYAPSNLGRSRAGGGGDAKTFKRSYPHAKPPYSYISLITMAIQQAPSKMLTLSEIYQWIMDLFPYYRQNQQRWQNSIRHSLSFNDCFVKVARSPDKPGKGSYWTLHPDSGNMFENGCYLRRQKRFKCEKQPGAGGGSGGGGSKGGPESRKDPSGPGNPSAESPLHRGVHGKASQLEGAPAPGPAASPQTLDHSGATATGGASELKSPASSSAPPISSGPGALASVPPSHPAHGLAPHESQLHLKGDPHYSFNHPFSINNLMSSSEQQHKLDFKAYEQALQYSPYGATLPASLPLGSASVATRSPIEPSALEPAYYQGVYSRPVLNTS
Oligonucleotide	normalised bound fraction
CCGTTAGCCATTTCTACAGTAAATGGTATCTGAAATTTTGTTATTTGAAAGAATTTTCTTGCCAAAACATGGAAATACGCAATATTTTGGCAAAATGACTTTGTATACGGGAACTTATTTTTTTAATTTTTTTATTTTTTTTGAGGCAGAGTCTCACTCTGTTGCCCAGGCTGGAGTGCAGTGGCACAGTGT	0.0538 ratio
TTGAGTATAGACCCAATAATAGGATTGTTGGGTCAAATTTCTGTTTTTAGCTCTTTGAAGAAGCGCCACATTTCTTCCCACAATGGTTGAACTTATTTACACACCTGCCAAGACTGTGTAAGTGTTCTCTTTTCTCCACAACCTCTCCAGCATCTTTTATTTTTTGACTTTTTTTGTGTGTTCTACTTTGTTA	0.21 ratio
AATCAGTTCAAAATAAAAAATATAAACCATTCAAGGAAACAAACTCTACATCATCCTAGGCCATCGTCAATTAGGGAAAGTCAGTAGGCAGAGTAATCTGGAAAATGTGTGCCTCACAATTTGAGATAATAGGACACTGAAAAATAAACTATAAAATTTGTGGCCGGGTGCAGTGGCTCACACCTGTAATCCC	-0.00863 ratio
TATTTTTACTAATTTGTATTTTCTAATTTTTTTTTTTTTTTTTTTTAAATTCACTAGGGTTTTTCTCTCTTTGACATTTAAACAAGAACACAAAGTAAACAGGAAATACAATTTCCAATGTCTTTTAAAGATAATGTTTTTATATAAGTTGTGTGTTCTCACTAGTTTTTTCTTCTTGAGGTAATGTATTAAT	0.344 ratio
CCAACGTATCAGTATATTCAGCTCCCCTGTTCTTTGTTCTTCATTTTAAACGTTAACTTCCTTGTTCTTTATATCTCCTTGGCCCTAGTCTCAGTAATCTACCCACCAGTTCTAATCAGTAGTTCACATCTGTTCCCCTGGTCACCTGATCCATCCTGAGTCACCCTTGGTCACCTGCTCTGTCCTGAGTCAC	-0.0725 ratio
AATATTTCAAACACTACGTACCCCAACTGACATTTGAGTAGCAGTTAAGTTCTTGGAACGCTGGTTACGTAACCCATTTTGATCTAGCTCATTGTAAACAGGATGAAATAGGGCAGTTAAAAGACTAATGGTCAGTGAAATCTACAACAGGAATGGAAAGAATTTTCCCCTTAAAAATTTGGAAATCCTTATT	-0.00895 ratio

Block 3 — method: protein binding microarray; molecule type: double-stranded DNA, one strand shown; matrix: in vitro; concentration: not given; baseline: not given; direction: higher = stronger binding
Target: Histone acetyltransferase KAT6A, both winged helices, GST fusion (KAT6A, Homo sapiens, UniProt Q92794, residues 1-181)
Notes: 8-mer, flanks averaged, mean of 2 arrays, mostly near background
Target sequence (chain): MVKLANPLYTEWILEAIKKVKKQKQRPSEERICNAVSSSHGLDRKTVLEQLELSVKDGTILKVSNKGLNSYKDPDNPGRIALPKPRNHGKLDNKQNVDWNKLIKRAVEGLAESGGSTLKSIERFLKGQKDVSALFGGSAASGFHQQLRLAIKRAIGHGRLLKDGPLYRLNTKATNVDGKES
Oligonucleotide	E-score
AAAGAAGA	-0.118
GAGTTATC	-0.0414
ACACATCC	-0.0418
AAATCAGC	-0.204
AACGCCAT	0.0285
GACACTGC	-0.106
CGTGCGAA	0.119
ACTTGCCT	-0.179
GAAGTTCA	-0.139
GAATAAAC	-0.0554
AAGGACAA	-0.128
CCGTTTCG	0.182
GCATGTAC	-0.0578
CTATACAG	-0.0952
ACGCAAAA	0.175
ATAGGAAG	-0.0458
GAAAATCC	-0.096
GCCCGTTA	0.265
GTGTGCGA	0.0477
ACTCCCTA	-0.133
AACGGATT	0.189

Block 4 — method: RNA Bind-n-Seq; molecule type: RNA; matrix: in vitro; concentration: 365 nM; baseline: no-protein control; direction: higher = stronger binding
Target: RNA binding protein fox-1 homolog 2, RRM domain, GST-SBP tag (RBFOX2, Homo sapiens, UniProt O43251-10, residues 100-194)
Notes: natural RNA segment, single round, ends assumed
All sequences stand within: GGGAGUUCUACAGUCCGACGAUC … UGGAAUUCUCGGGUGCCAA
Construct (chain): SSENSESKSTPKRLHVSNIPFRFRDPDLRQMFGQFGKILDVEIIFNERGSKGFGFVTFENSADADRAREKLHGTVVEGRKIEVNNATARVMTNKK
Oligonucleotide	RBNS enrichment (R)
GGGUUAAGAGAACCAUUUAAAGUAUUUUGUUCAUUAAAUGCCUCUUUCCAAAAAUGGAAGAUCCAAAAAUGGGGAUGUUUUAUGUACCCGGGUUAUUUUGUAUGAAUUCA	0.916
AAAAGGUAUGUCAGACUGGGAUUAAUGACAGCAUGAUUUUCAAUGACUGUAAAUUGCGAUAAGGAAAUGUACUGAUUGCCAAUACACCCCACCCUCAUUACAUCAUCAGG	0.578
UGUACCCACGUGCCCAUGUAUAUGUUUGUGUGUGUGUAUGUGUGAGUGUGUGUGUAUGUGUGUGUGUAUGUAAGUCCCCUGUGUGGGUCCAGUUUCAAGGCAUGUACAAU	5.79
UGUUCCCUUUGUGUGUACGUUUCUCACCCCUUAACCACUUCAGUGUCAAAAAAGUUCCCAUUGUGUCUUCUGAAAGUGAAGUCCCAUAAGGAAGUUGGGAGAGAAUGUGC	0.62
GUUAAGUCUGGCUAUAUUUGAAGGUUAUGACAUAAAGCCAGCAGCUUUAAUGGCUUUUAUGAAGUGAAGUGACUUGUUUAACUCCUAUUUAUAUUUCUCUGUGCAUAUAU	2.68
GCAUCUGGCCCCAGAAGCCUCCUCACCUGGACUGGCACAACUUCGGUUGGGGAAACAGAAGCUGAGGGAGCUUAGAUGGGGUGGGGGAUCCAAGCCCCUCCCAGCCCACC	0.28
CAUUGUGACAUACAAUUUAAACACUCAUUGGGCUGCUGUGCUGUGUAAAGAAAGAGGGACUGCAGUGUAGCUCCUUUAGUGGUGAGACAUGAAGGCUGUGGCAAUCUCAA	0.569
UUGGACAUCAGUUUGUGUGUUCUGUAGGAAUUGUGUGCAUUCCAUUCACACAGUAUUUCUUUAGGAUGCUGUGAUGAUUUGAAUUACAAAUCCUACAGUCAAUAGCUAAA	0.273
GGUUGGCUCUGGCCAGGAUUCCAGGCAGCAGGUUGGAGUGACUGGUGGGCCUAGAUCACUGGUGUGAUAAACCCCAAUUUUCACCCCGGGGGGGGUGGGGUACACAGACA	0.5
CUCCUUUUUUCUCUUGCUGCCCACAUUGUGCCUUUAUUUUAUGAGCCCCAGUUUUCUGGGCUUAGUUUAAAAAAAAAAUCAAGUCUAAACAUUGCAUUUAGAAAGCUUUU	0.753
CUGUUAACCAUGUACAAUAUUUAAAAUAGGCUUAUUUUGAUGUAUCGCCUAUUAUACAAACACACAAAACAUUUUUGGAGGCCUCAGUUAUGAGUGACAGAGCUUUCUGU	0.371
UUUAUAAAAUCAUUUUCAAGUUUCUUCAGAUGGGAAGGUGAUUCUGUGACCUUUCUUAUUUCCCUGUUAUCAAGGAAACAGUUUUACCUAUUGAGCUAUAAAAAAAAAAA	0.545

Excerpt of the above (block 3):
Oligonucleotide	E-score
GCATGTAC	-0.0578
GTGTGCGA	0.0477
GAAGTTCA	-0.139
CTATACAG	-0.0952
GAAAATCC	-0.096
AAATCAGC	-0.204
